# Experimental data collected from several papers.
# Every numbered part comes from another study and shows a few of its results, in no order. Substitutions count along the parent as printed.

# Series 1 — method: protein binding microarray; molecule type: double-stranded DNA, one strand shown; sample: in vitro; tested at: not given; reference: not given; reading: higher = stronger binding
# Target: Histone acetyltransferase KAT6A, winged helix 1, GST fusion (KAT6A, Homo sapiens, UniProt Q92794, residues 1-85)
# Notes: 8-mer, flanks averaged, mean of 2 arrays, mostly near background
# Residues (chain): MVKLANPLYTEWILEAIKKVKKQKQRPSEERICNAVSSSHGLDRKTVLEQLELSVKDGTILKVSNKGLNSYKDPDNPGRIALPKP
Sequence,E-score
GCCGCCGA,0.439
ACAAGTGA,-0.155
CACCTAAG,-0.051
GGCCTCGA,-0.0709
GTACCTAC,-0.12
TAGGAATA,-0.266
CCTCGGAG,0.0378
AGAAAACA,-0.094
GAATCATA,-0.146
CGCGATGC,0.295
AGGTGGCA,-0.0859
GCGCTTTA,0.325
ATAGCTAT,-0.007
CACGCGTC,0.255
AAATGAAG,-0.16
AATGGTCG,0.00166
GGAAAGAC,0.00074
AATGCACC,-0.164
CACGCGTA,0.285

# Series 2 — method: RNA Bind-n-Seq; molecule type: RNA; sample: in vitro; tested at: 365 nM; reference: no-protein control; reading: higher = stronger binding
# Target: RNA binding protein fox-1 homolog 2, RRM domain, GST-SBP tag (RBFOX2, Homo sapiens, UniProt O43251-10, residues 100-194)
# Notes: natural RNA segment, single round, ends assumed
# Target sequence (chain): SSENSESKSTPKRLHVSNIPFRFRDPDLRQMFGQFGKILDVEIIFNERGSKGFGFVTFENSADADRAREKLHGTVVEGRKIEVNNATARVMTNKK
Sequence,RBNS enrichment (R)
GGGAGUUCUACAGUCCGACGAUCCCUGAAAAGAAAUCCUUUAAAUUACCUAUGGAAGUGAUGUCCUCAGAUAAUCUUAAUGACUAUUUUGGCAUUUAUAAAUAGAAAUGAUUAUGGACUUUGAUCUGCCAUACUGGAAUUCUCGGGUGCCAA,0.469
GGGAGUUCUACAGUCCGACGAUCUAUGUGGUUACAAAUAUAUGUCAAUGUACAUUUUGAACAUAUUUAUGUGCUAUGGAAGGAAAUGCUGGUGACUAAAAUAAGGUUUACUCUGAAAGAGGAGGAAUUUUAUUUGGAAUUCUCGGGUGCCAA,0.34
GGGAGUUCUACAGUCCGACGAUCUUUUUUUCCCUUAAUGUUGAAUUAAAAUACUUGCUCAUAGUUGAUUUACCAUUCCUACAAAAGAGGCAGAAACUUUGAGCAAUCUAGGUUUUUUUUUUUUUUAAGUUUUUUGGAAUUCUCGGGUGCCAA,1.03
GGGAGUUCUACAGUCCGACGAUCCACUCUCGUUCAGGAGGAGGCUUCUCGCCUGAAACAAUUGCACCCAACACUUUUGGGGAAGUCUCAUUUUUGCAUUAGGACAUAUUUUAGGUUAAACAAAAGCAUAUUUUUGGAAUUCUCGGGUGCCAA,0.948
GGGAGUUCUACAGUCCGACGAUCCAGGCCUGAUGAAUUUUUAAGACUGCUUUGUUGGUCAUUUGGCUGAUGGCUUCUUAUGUGCAUUCAACAGUUAAAAAUUCCUAAUCGAUUCUGUCAUCAUGCCCCCUCCCUGGAAUUCUCGGGUGCCAA,0.403
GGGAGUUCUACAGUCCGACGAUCUUUGCGUUAAUGAAGACUACACAGAAAACCUUUCUAGGGAUUUGUGUGGAUCAGAUACAUACUUGGCAAAUUUUUGAGUUUUACAUUCUUACAGAAAAGUCCAUUUAAAAUGGAAUUCUCGGGUGCCAA,0.584
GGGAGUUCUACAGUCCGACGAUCAAGCUUCUAUGGUUGACAUUGUAUAUAUAAUUUUUUAAAAAGGUUUUCUAUAUGGGGAUUUUCUAUUUAUGUAGGUAAUAUUGUUCUAUUUGUAUAUAUUGAGAUAAUUUUGGAAUUCUCGGGUGCCAA,1.32
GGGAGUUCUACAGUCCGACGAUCUGCCUGCCAUGGCCACAGGCUCUCUCUGUGCAUUCUCUCUGGAGUUAGCCUGCUUCUCACAGGACACUUGUGACAGCAGAGCUGGGGGUGGUUUUCCAGCCUCGACCCACUGGAAUUCUCGGGUGCCAA,0.482
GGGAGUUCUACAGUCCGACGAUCUGGGGACUGUCCCUUAGGAAAGCCAUAAAAGUGAUUCCCAAUACUUUGCAAUUGCUUUUGAUUUUUAGUCCUUUGGAACAAAUGUGUGAUGUUAUGUCUGAUGUUGUGUUUGGAAUUCUCGGGUGCCAA,0.706
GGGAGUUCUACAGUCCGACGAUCGGAGCCUGCCUGCCUCUGCCGUCCUCAGUUUCCUUUCAUGAGGCUUCUAGCCAAAGAUGAUAAAGGGGGAAAUGGUUUUUAGUGCGUAUAUUAUACUGCCUCUUAGGUGUUGGAAUUCUCGGGUGCCAA,1.63
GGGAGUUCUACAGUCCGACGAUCAGCAUUCCUACGUUAUCCAUAUGUAUAUUUAUUUGUAUGUGUUUCACGUUAUAAAUGUUUUGUAGUGAACCCAGGGUGGGUGAGGGGGAAGCAUCUGUCUCACAUAGGCUUGGAAUUCUCGGGUGCCAA,0.44
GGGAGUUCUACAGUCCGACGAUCCACCUGAGGCAGUGUGGGAGUUGAACGACCCUGCUGUCCUUUUUAACCUGUGUUGUCCUAGACCCUGUCGGGGCAGUCAGGGGACACUAGAGAUUUGAUCUCAUGCGAGUUGGAAUUCUCGGGUGCCAA,0.241

# Series 3 — method: universal PBM; molecule type: double-stranded DNA, one strand shown; sample: in vitro; tested at: 600 nM; reading: higher = stronger binding
# Target: Sal-like protein 4, full length isoform A (SALL4, Homo sapiens, UniProt Q9UJQ4, residues 1-1053)
# Chain of UniProt Q9UJQ4 (whole entry, looked up): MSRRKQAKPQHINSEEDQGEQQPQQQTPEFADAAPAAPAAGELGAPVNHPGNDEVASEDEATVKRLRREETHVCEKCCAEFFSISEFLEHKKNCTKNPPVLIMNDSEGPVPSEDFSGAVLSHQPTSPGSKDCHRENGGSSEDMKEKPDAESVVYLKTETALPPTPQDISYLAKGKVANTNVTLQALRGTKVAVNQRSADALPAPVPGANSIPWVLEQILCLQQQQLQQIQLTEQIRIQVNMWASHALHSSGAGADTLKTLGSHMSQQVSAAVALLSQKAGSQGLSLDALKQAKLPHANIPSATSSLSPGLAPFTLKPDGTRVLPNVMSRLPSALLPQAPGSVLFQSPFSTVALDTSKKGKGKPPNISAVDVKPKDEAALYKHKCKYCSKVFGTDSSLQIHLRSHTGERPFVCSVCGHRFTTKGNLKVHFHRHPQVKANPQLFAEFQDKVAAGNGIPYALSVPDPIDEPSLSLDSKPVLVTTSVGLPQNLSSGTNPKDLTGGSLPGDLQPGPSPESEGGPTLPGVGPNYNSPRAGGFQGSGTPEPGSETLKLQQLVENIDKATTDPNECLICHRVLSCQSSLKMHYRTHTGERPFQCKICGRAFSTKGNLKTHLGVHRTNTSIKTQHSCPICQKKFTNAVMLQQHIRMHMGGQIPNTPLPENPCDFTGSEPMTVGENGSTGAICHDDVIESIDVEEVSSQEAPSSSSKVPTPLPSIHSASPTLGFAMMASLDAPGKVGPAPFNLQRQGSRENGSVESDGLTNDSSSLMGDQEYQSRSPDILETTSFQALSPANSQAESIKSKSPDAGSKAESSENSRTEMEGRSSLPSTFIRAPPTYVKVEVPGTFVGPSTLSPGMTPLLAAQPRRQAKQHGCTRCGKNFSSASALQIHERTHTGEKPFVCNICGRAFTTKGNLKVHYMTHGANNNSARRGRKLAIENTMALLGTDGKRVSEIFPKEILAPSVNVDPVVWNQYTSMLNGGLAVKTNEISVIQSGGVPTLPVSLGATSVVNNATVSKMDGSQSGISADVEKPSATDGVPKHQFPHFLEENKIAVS
# Notes: 8-mer, flanks averaged, mean of replicates
Sequence,E-score
ATGTTAGA,0.153
AAAAACCG,-0.0203
ATACGAAG,0.199
ATGCCGCG,-0.184
TCTCCACA,0.0614
ACCAGCAA,0.00417
CGCGAGGA,-0.264
ATAGCGCC,-0.12
CGTAGTCA,-0.0517
TATCCCAA,0.0493
GAGGTAGC,-0.286
ACATCCGT,0.0665
TTCTTCAA,0.139
AGGTTACA,0.109
CGCGGGGA,-0.355
AGCCGTCG,-0.328
GAGTGTCC,-0.234
AGGTAAGA,0.0748
ACGGGGAG,-0.359
TAGATTAA,0.277
CACTTTGC,0.02
GACATCCC,-0.267
ATAGGTCC,0.0201
AGATTACG,0.0952
ACCGACAA,-0.0722

# Series 4 — method: protein-binding microarray; molecule type: double-stranded DNA, one strand shown; sample: in vitro; tested at: not given; reading: higher = stronger binding
# Target: Protein C-ets-1 (ETS1, Homo sapiens, UniProt P14921, residues 1-441, K379A, full length assumed)
# Notes: k-mer, scored over probes, only values ≥0.25
# Construct (chain): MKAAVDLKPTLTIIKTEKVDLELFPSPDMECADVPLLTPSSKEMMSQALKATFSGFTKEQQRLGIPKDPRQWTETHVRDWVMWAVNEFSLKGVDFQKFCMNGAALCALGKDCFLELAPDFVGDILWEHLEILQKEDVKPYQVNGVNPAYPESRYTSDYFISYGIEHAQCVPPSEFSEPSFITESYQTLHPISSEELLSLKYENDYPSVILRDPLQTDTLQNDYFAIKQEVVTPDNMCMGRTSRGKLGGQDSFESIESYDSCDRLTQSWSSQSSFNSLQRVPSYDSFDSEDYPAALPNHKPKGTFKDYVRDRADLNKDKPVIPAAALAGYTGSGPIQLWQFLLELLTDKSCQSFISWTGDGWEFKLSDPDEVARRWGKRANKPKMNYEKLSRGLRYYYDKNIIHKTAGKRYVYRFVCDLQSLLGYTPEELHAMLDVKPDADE
Sequence,E-score
CGGAAGTA,0.329
GTGGGGTA,0.324
TATAATAA,0.292
ACGGTACG,0.307
AAACCCGG,0.284
CCCGGGTA,0.283
ATTACCGG,0.373
ATACCGGA,0.397
AATTATAC,0.313
CATGTCAC,0.261
AACATACT,0.256
ATATACAT,0.333
CCGGAAAA,0.378
CCGGTTAG,0.389
AACTCACA,0.277
CATGATAA,0.26
GCGCCGCC,0.306
GATGTCAC,0.31
CTACCGGC,0.305
CGCGTGTC,0.26
ACCGGTCT,0.361
GGCCGGAA,0.364
CCGCCGGC,0.345
ACCGGTCA,0.376
CGACACCG,0.309

# Series 5 — target: CCNB1, cyclin fold, Cln2 fusion (human); method: yeast growth competition, sequencing; sample: yeast; notes: weak parent motif; reference: not given; reading: higher = stronger binding
# Starting sequence: CDC6 docking peptide (human); TLKGRRLVFDNQL
Substitution,normalised enrichment score
TLKMRRLVFDNQL [G4M],1.5
TLKGRRLFFDNQL [V8F],0.836
TLKGRRYVFDNQL [L7Y],1.63
TLKGRRLVFDNIL [Q12I],0.675
TLKGRRMVFDNQL [L7M],0.111
TLKGRVLVFDNQL [R6V],1.01
TLKGRRLVFANQL [D10A],-0.432
PLKGRRLVFDNQL [T1P],-0.0834
THKGRRLVFDNQL [L2H],0.249
TLKGRFLVFDNQL [R6F],-0.524
TLKGYRLVFDNQL [R5Y],-0.116
TQKGRRLVFDNQL [L2Q],-0.0992
ELKGRRLVFDNQL [T1E],0.323
TLTGRRLVFDNQL [K3T],0.743
TGKGRRLVFDNQL [L2G],0.297
TLKGRRLVQDNQL [F9Q],0.117
TLKGARAVFDNQL [R5A L7A],0.212
TLKGRYLVFDNQL [R6Y],0.183
TLKGRRLVKDNQL [F9K],0.836
LLKGRRLVFDNQL [T1L],0.696
QLKGRRLVFDNQL [T1Q],-0.294
TLKGRRCVFDNQL [L7C],-0.337
TLKCRRLVFDNQL [G4C],1.05
TIKGRRLVFDNQL [L2I],0.0281
TLKGTRLVFDNQL [R5T],0.739

# Series 6 — method: protein-binding microarray; molecule type: double-stranded DNA, one strand shown; sample: in vitro; tested at: 250 nM; notes: 60-bp whole probe; added: salmon DNA 0.4 mg/ml; reference: random background probes; reading: higher = stronger binding; all sequences stand within: GCCTAGCAC … GTCTTGATTCGCTTGACGCTGCTG
# Target: Interferon regulatory factor 5, full length, phosphomimetic (IRF5, Homo sapiens, UniProt Q13568-2, residues 1-514, K96S/S451D/S453D/S456D/S462D)
Sequence,log fluorescence
GACGGTTTCGGACTGGGGACGTGCTAG,3.93 z-score
TTAGGTCTCCTTTTCGTTTAGTGCTAG,1.09 z-score
GTCGATCTCAGTATCGAGACGTGCTAG,2.12 z-score
TCATGTGTTACTTTCTAACTGTGCTAG,1.19 z-score
TTAGGTTTCGGGTATCGGTTTGTGCTA,9.2 z-score
GACGGACTGGAGTTTCGGGACGTGCTA,3.28 z-score
GACAGTATCCTTATCCTGACGTGCTAG,0.298 z-score
TCAAGTGTGCCATATTTAACTGTGCTA,0.464 z-score
GACGGTATCGACTATCGGAACGTGCTA,4.87 z-score
TTAGGTTTCCTCCTCCTTTAGTGCTAG,0.512 z-score
GACGCTTTCGGGTTTCGAGACGTGCTA,8.65 z-score
TTAGATTTCGGGACCGGATTAGTGCTA,2.88 z-score
TCAACTCTCTAATTTTGACTGTGCTAG,0.477 z-score
GACGGTCTCGGTTTCGGGATGTGCTAG,3.96 z-score
GACGATTTCAATCTCGAGACGTGCTAG,0.693 z-score
TTCTCAACCAGTTTTCTTTTCGTGCTA,1.5 z-score
GACGATCTCAGTTTCGATACGTGCTAG,8.88 z-score
GACGGTTTCGGACTCGGGACGTGCTAG,3.79 z-score
GACGAATTGAGACTGGAGACGTGCTAG,-0.132 z-score
TTTTGCTTTCTTTTATGCTCGTGCTAG,6 z-score
GACGAACTGGGGTATCGAGAGGTGCTA,0.0138 z-score
GACGATATCGGGTATCGGGACGTGCTA,2.57 z-score
GACGTTTTCGGACTGGGGACGTGCTAG,2.14 z-score
TTAGATTTCGGGTGTCGATTAGTGCTA,4.95 z-score
TTAGATATCACTCTCGATTAGTGCTAG,2.5 z-score

# Some of these lines once more (series 4):
Sequence,E-score
CGGAAGTA,0.329
AACTCACA,0.277
TATAATAA,0.292
CCGCCGGC,0.345
ACCGGTCT,0.361
ACGGTACG,0.307
GTGGGGTA,0.324
CCGGAAAA,0.378
ATACCGGA,0.397
CGACACCG,0.309
CTACCGGC,0.305
GCGCCGCC,0.306
ATATACAT,0.333
AACATACT,0.256
AAACCCGG,0.284
GATGTCAC,0.31
AATTATAC,0.313
ATTACCGG,0.373
CATGTCAC,0.261
CATGATAA,0.26
